Measured values collected from several papers.
Parts stem from different laboratories: compare values within a part only.

Series 1 — method: RNA Bind-n-Seq; molecule type: RNA; medium: in vitro; tested at: not given; baseline: input RNA pool; direction: higher = stronger binding
Target: RING finger protein unkempt homolog, zinc fingers 1-6, GST-SBP tag (UNK, Homo sapiens, UniProt Q9C0B0, residues 30-357)
Notes: RNA with constant flanks, human and mouse sites, ends assumed
Constant ends, left off below: GGGAGUUCUACAGUCCGACGAUC … CAACAGAGGAUUGAGCAUCA
Target sequence (chain): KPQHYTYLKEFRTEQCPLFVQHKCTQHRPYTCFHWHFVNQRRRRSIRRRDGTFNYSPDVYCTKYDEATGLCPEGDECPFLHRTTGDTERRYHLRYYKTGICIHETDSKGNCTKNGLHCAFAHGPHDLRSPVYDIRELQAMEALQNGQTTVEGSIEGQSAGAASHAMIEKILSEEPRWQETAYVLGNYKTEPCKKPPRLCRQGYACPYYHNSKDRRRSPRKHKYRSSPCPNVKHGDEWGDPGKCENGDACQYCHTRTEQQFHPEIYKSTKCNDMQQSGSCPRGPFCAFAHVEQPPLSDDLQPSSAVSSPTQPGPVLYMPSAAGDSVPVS
| Strand | bound/input enrichment |
| --- | --- |
| AAGGGAGGAAUCCUACGUUUUAUAUGUUUUUUUUUUCUUUGUUAAUUCUACACUUUGAAAGUGUUGGCUAAAUAAACUAAUCCAAAAGUUAUUUUUUCCUAUCGAGAAGACAGAAAAAGG | 0.561 ratio |
| AGGCCAUCCAUCAACAUGGAAGAGCUGGAUGACUCCUACCAGAAGGCCAUUGAACUCUUCUGUGUGUGCACUAAUGAGGAUCCUAAAGAUCGCCCGUCUGCUGCACACAUCGUUGAAGCU | 0.0796 ratio |
| GUUUUUGGCUGCAAUUGCAUGAAAUCCCAAUGGUGUAGACCAGUGGCGAUGGAUCUAGGAGUUUACCAACUGAGACAUUUUUCAAUUUCUUUCUUGUCAUCCUUGCUGGGGACUGAAAAC | 0.463 ratio |
| GUGACCAGCGCUGUGGACCAGCUGCAGCAGGAGUUCCACUGCUGUGGCAGCAACAACUCACAGGACUGGCGAGACAGUGAGUGGAUCCGCUCACAGGAGGCCGGUGGCCGUGUGGUCCCA | 0.047 ratio |
| CUCUGUAGACAUAAGCAGUUCUAGCAUGAAGGGACGCACCAAUGUGAGAAAACUGAGCCUGUUUAUAUUAAAACAAAACAAAAAAACAGUAAGGAUGAGCUCUGUUCACUUGGAUUAAUG | 0.29 ratio |
| UCUUUGACCCAGAUUGUGUGACCCUGUGCCAGUGGGGGGGUUGAGGGUGGGACGGUGUCCGUGUUGUUGCUUUCCCACCCUGCAGCGCACUGGACUGAAGAGCUUCCCUCUUCCUACUGC | 0.243 ratio |
| CCGGCCGCGUCUCCUUCCUCCCCCUUCCCUCCCCCUUUUUUGUUUUCCGUUCCCCUUCCCCCUCCCUUCCCCGUCCCCGACGACCGGAUCCAGAGGAGGCAGCUGCGGUGGCAGCUGCUG | 1.32 ratio |
| CCAAAAGCAGUGGUUUCUCCUCCAAAGUUUGUAUUUGGUUCAGAGUCUGUUAAAAGCAUUUUUAGUAGUGAAAAAUCAAAACCAUUUGCAUUCGGCAACAGUUCAGCCACUGGGUCUUUG | 0.166 ratio |
| GUACUAAGUGAACUGGAGCCCCUAUGUCUGGCAGAACAGGACUUCAUAAGUAAAUUUUUCAAACUACAGCAACAUCAAAGUAUGCCUGGAACUAUGGCUGAAGCAGAGGACCUGGAUGGA | 0.415 ratio |
| AGAUAGUAAUUUUUAAAAUUUGCUCUUGUCAUUUGGGAUUUGUUUUGUUUGGGAUUUUGUUGUGUGUGAUUUGUUUUGUUUUGUUUUGCAGAUUUCAGGUAACAAAGUGAGACGCUUAUG | 11.4 ratio |
| UGUACAAAUCCUAUAACACCUCUUUGUACACAACCUGACCAGGUUAUUAAAGGGGGUGCUAGUAUUAUUCAGUGCCACAUUCUUAAUGAUAAGAGACAUAUAUUAACCAAAGAUACCAAU | 2.42 ratio |

Series 2 — method: protein binding microarray; molecule type: double-stranded DNA, one strand shown; medium: in vitro; tested at: not given; baseline: not given; direction: higher = stronger binding
Target: Histone acetyltransferase KAT6A, winged helix 2, GST fusion (KAT6A, Homo sapiens, UniProt Q92794, residues 85-181)
Notes: 8-mer, flanks averaged, mean of 2 arrays, mostly near background
Construct (chain): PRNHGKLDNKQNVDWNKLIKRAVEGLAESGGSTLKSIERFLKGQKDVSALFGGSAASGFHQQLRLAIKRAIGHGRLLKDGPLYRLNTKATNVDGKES
| Strand | E-score |
| --- | --- |
| GTCACCGA | 0.0864 |
| CTAAATTC | 0.0542 |
| GGACGGGA | -0.0242 |
| CCATCAGC | -0.086 |
| AGGAGTAT | -0.201 |
| ACGGAACT | 0.0247 |
| ACAGATGG | -0.246 |
| ATCCGATC | -0.0102 |
| GCATCTCA | -0.0121 |
| ACGCTTAA | -0.134 |
| CAAATGTA | -0.224 |
| CCCGTCCG | -0.132 |
| AGCGTAGA | -0.0246 |
| CAGGGGGG | -0.116 |
| AGCTATTC | -0.162 |
| CAGTTCGG | 0.18 |

Series 3 — method: RNA Bind-n-Seq; molecule type: RNA; medium: in vitro; tested at: 365 nM; baseline: no-protein control; direction: higher = stronger binding
Target: RNA binding protein fox-1 homolog 2, RRM domain, GST-SBP tag (RBFOX2, Homo sapiens, UniProt O43251-10, residues 100-194)
Notes: natural RNA segment, single round, ends assumed
Constant ends, left off below: GGGAGUUCUACAGUCCGACGAUC … UGGAAUUCUCGGGUGCCAA
Residues (chain): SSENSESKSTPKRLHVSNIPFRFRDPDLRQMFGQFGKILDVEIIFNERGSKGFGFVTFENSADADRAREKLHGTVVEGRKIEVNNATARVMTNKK
| Strand | RBNS enrichment (R) |
| --- | --- |
| AAUUCCAAUGUUAUAGUGAAGUGUAAUGAAAAACAUCUCUAGGAAUGUGCUUUAACCACUGCUGCAAAAGAGACAAGUCUGCAUUUAUUUGUGCAGGAAACCAGCCAUUU | 0.656 |
| GCAUUGGACAAUCAAAUUCCCCUGAGUUUCAUAAUCUCAUCAAUAUUUUAAGAUAGGCGAGCACACACUAAUAAUAUCUAUGCCUACCUUCUUGGGUGGACUCAACUGUA | 0.573 |
| CUUUUCUUUUAUGAUCCUUCUCUGCUAGAACAGGUUAAUUCUCCAAAUUUGUUUUGUUUUGUUUUGUUAUUUUUUAGGGAACUCUUUUGCAAAAGCAAUGGUCGGAUGUA | 3.12 |
| UAUGCGUAUGUGCACGGGGCCGCCCGCCUGGACCUGGAGAAGGGACCUACGGACGCCUGGAAGCUGCGACGCCCUGCACUGCUCCCGCCUCCACCAGCGCCUCCCACUGA | 0.834 |
| UUUUAUUUUUAAGAAAAAAACUUUGUAAUGCUUGUGAUUCCAUCUGGGCAAAAGUCUGAAGAUCUGAAAUAACUUUAUAUCAAACCAUUGAUCAAUAAACAGCUACUAAU | 0.433 |
| AGAGCUGUAUUAAGCCACUUAAAAUGUUCACUUUUGACAAAGGCAAGCACUUGUGGGUUUUUGUUUUGUUUUUCAUUCAGUCUUACGAAUACUUUUGCCCUUUGAUUAAA | 0.585 |
| UUCCCCACCAGACCUUUGUAGCUCCUCCAGCCUCUGCAGAGACUCCCUUCACCUCGCACUUACUGCCUGGGAACCACGGCCCUUCUCUUCUGUGGGUCUGUACCAGGUAC | 0.736 |
| AUUGUUGCAGAGCUAGCUCCACAGAGUCAGAAAGUUCUGACCCACAUUAGACCCGUGUGCGCUGCUAAGGCCAUGGUAACCCUCUGGGGACAGGCAGCCAUUGAUGGGAG | 0.291 |
| UUUUUGUAAUUUAUUUUUUAAGUGGGCUCCUGACAAUACUGUAUCAGAUGUGAAGCCUGGAGCUUUCCUGAUGAUGCUGGCCCUACAGUACCCCCAUGAGGGGAUUCCCU | 0.626 |
| CAACCACUCGUUGGUCAAGUUCAGACACCAUCCAUGGAGGUUGCAGGAAAGCUGGGGAAGGUUAUGAGUGGGAAUACUGUUUCGAAAGUAUCGUGCAUUAAAUGGGCAGU | 1.25 |
| UCUCAUAGGACGGAGGGGGAAAUGGUUUCCCUCCAAGCUUGGGUCAGUGUGUUAACUGCUUAUCAGCUAUUCAGACAUCUCCAUGGUUUCUCCAUGAAACUCUGUGGUUU | 0.285 |
| GUGAGACCUGCUCUUUACAGAUGGUAUUUUGAUAGAUACUGGAGUUUGUCUGUAUUAUAUCUGUGCCCCUUCUUUUAAGAACAAUGUUACAUUAUGUUCCUUUGGAUAAA | 0.329 |

Series 4 — method: aptamer microarray, sandwich; molecule type: DNA with 2'F-ANA; medium: in vitro; tested at: 200 nM; added: Cy3 exosite-II aptamer, 400 nM; direction: higher = stronger binding; strand: GGTTGGTGTGGTTGG
Target: Prothrombin, mature alpha-thrombin (F2, Homo sapiens, UniProt P00734)
Notes: whole 15-mer aptamer, many near background
| Modification | mean fluorescence intensity [a.u.] |
| --- | --- |
| 2'F-ANA at 5 6 10 11 12 13 14 15 | 148 |
| 2'F-ANA at 3 8 10 11 13 | 443 |
| 2'F-ANA at 1 2 4 5 6 9 10 11 13 15 | 78.3 |
| 2'F-ANA at 1 4 8 10 12 14 | 46.8 |
| 2'F-ANA at 1 4 7 9 10 11 13 | 52.7 |
| 2'F-ANA at 1 2 3 4 6 7 8 11 15 | 153 |
| 2'F-ANA at 2 10 12 13 15 | 167 |
| 2'F-ANA at 4 5 6 7 10 11 12 14 | 44.1 |
| 2'F-ANA at 1 5 7 8 9 10 15 | 47.7 |
| 2'F-ANA at 1 2 3 5 6 8 13 14 | 49.2 |
| 2'F-ANA at 1 2 5 7 10 12 14 | 49.2 |
| 2'F-ANA at 1 3 4 6 8 9 10 11 13 14 15 | 51.5 |
| 2'F-ANA at 1 2 4 6 8 10 11 14 15 | 51.5 |
| 2'F-ANA at 1 3 5 6 10 12 13 15 | 49.6 |
| 2'F-ANA at 2 3 4 6 8 9 10 12 13 | 218 |
| 2'F-ANA at 2 4 6 8 10 11 13 | 120 |
| 2'F-ANA at 1 4 7 8 10 11 13 14 | 45.4 |
| 2'F-ANA at 1 3 8 10 11 | 75.5 |
| 2'F-ANA at 3 5 6 10 11 12 15 | 58.1 |
| 2'F-ANA at 1 2 3 7 10 12 13 14 15 | 138 |
| 2'F-ANA at 9 13 | 443 |
| 2'F-ANA at 1 2 5 6 7 8 11 14 15 | 47.8 |
| 2'F-ANA at 1 2 5 10 12 | 47.5 |
| 2'F-ANA at 5 6 9 11 12 13 14 | 45.2 |

Some of these lines once more (series 4):
| Modification | mean fluorescence intensity [a.u.] |
| --- | --- |
| 2'F-ANA at 3 8 10 11 13 | 443 |
| 2'F-ANA at 1 2 4 5 6 9 10 11 13 15 | 78.3 |
| 2'F-ANA at 1 4 8 10 12 14 | 46.8 |
| 2'F-ANA at 1 4 7 9 10 11 13 | 52.7 |
